Measurements from different studies.
Every numbered part comes from another study and shows a few of its results, in no order. Changes are numbered by the printed parent chain.

Block 1 — method: RNA Bind-n-Seq; form: RNA; medium: in vitro; tested at: 365 nM; relative to: no-protein control; reading: higher = stronger binding; quantity: RBNS enrichment (R)
Target: RNA binding protein fox-1 homolog 2, RRM domain, GST-SBP tag (RBFOX2, Homo sapiens, UniProt O43251-10, residues 100-194)
Setting: natural RNA segment, single round, ends assumed
All sequences stand within: GGGAGUUCUACAGUCCGACGAUC … UGGAAUUCUCGGGUGCCAA
Residues (chain): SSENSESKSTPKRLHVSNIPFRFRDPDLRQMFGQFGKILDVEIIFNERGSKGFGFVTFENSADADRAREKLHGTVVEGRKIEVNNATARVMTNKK
GAAUGGUUUAAAAAGAUUGCAUUGUUACAAAGCUAGAAAAAAUUUAUGUAUGAAAAAUGAUCCUAGCCUUACACUGAGUACAAUAAUACUUAUAAGCAUGUGAAGAUGUG: 16.7
GUCCUCACCAACACUUGUGAUUAUGUGUCUUUUAAAAUUAUAGCCAUCCUUGUGGAUGUGAAGUGGUAACUCAUUGUGGCUUUGAUUUACAUUUCCUUGAUAGCUAAUGA: 0.45
CCCCGAGGACUGUGGCAUUGUCACCUUCACAGCAGACAGAGCUGCCAGGCCAUGAUGGGCUGGCGACAGCCCGGCUGAGCUUCAGUGAGGUGCCACCAGCACCCGUGCCU: 0.205
GGAACAGGAACUCAGGGUGCCCUUACCCCCUCCCCAGACCUGUUCCCUUUCUUUGACUGACAGAGCACCAUCCAGGCAAAAUUAGAGCGCCAAAUGGUUUUCUUCUCAAU: 0.302
UGCUUGCCACUGGAGGAACAGAUGGCUACGUCCGUGUCUGGAAGGUGCCCAGCCUGGAGAAGGUUCUGGAGUUCAAAGCCCACGAAGGGGAGAUUGAAGACCUGGCUUUA: 1.09

Block 2 — target: CCNB3, cyclin fold, Cln2 fusion (human); method: yeast growth competition, sequencing; medium: yeast; setting: weak parent motif; relative to: not given; reading: higher = stronger binding; quantity: normalised enrichment score
Starting sequence: WEE1 docking peptide (human); HKTFRKLRLFDTP; partner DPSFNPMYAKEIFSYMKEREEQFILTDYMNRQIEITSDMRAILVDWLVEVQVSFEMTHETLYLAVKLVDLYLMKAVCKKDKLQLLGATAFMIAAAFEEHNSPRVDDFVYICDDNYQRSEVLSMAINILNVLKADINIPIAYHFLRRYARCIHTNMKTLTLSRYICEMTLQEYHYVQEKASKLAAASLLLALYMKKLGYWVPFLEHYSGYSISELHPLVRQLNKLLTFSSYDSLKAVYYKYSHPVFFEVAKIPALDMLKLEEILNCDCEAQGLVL
HKTFRKLRLFDLP [T12L]: 0.0622
HKTFRKLRLFSTP [D11S]: -0.0319
HKTFRKSRLFDTP [L7S]: -0.303
HKTARKLRLFDTP [F4A]: 0.325

Block 3 — method: protein-binding microarray; form: double-stranded DNA, one strand shown; medium: in vitro; tested at: 2540 nM top; setting: 60-bp whole probe; with: salmon DNA 0.4 mg/ml; relative to: random background probes; reading: higher = stronger binding; quantity: fitted relative affinity
Target: Interferon regulatory factor 3, full length, phosphomimetic (IRF3, Homo sapiens, UniProt Q14653, residues 1-427, S386D/S396D/S398D/S402D/T404D/S405D)
Residues (chain): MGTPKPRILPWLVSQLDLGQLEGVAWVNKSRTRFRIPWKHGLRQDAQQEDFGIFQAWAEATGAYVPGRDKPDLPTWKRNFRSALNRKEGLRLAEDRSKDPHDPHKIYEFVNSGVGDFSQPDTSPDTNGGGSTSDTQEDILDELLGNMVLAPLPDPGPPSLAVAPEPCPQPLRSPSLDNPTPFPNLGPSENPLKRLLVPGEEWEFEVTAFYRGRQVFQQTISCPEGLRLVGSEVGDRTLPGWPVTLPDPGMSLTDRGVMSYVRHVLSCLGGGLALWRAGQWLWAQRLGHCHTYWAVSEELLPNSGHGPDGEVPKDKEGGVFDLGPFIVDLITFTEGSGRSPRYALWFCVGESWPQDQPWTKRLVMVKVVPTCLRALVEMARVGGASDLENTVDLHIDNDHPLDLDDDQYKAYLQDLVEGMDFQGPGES
GCCTAGCACGACGATCACAGTATCGAGACGTGCTAGGTCTTGATTCGCTTGACGCTGCTG: 0.723 z-score
GCCTAGCACTTAGATTTCGAGTATCGATTAGTGCTAGTCTTGATTCGCTTGACGCTGCTG: 1.22 z-score
GCCTAGCACGACGGTTTCGGTTTAGGGACGTGCTAGGTCTTGATTCGCTTGACGCTGCTG: 9.27 z-score
GCCTAGCACTTAGATCTCTGACTGGATTAGTGCTAGGTCTTGATTCGCTTGACGCTGCTG: -0.362 z-score

Further values, each from its own experiment
PhoQ, residues 284 288 289 292 302 303 SCCLKL  fold induction (PhoP, residues 12 14 15 18 19 LYHSL (Escherichia coli, UniProt P23836); Sort-seq, measured: YFP reporter; E. coli; PhoQ-PhoP variant library, with: 10 µM Mg2+; relative to: high Mg2+ state, higher = stronger signaling): 0.642
